# Experimental data gathered from unrelated publications.
# Every numbered part comes from another study and shows a few of its results, in no order. Positions count from the first letter of the parent shown.

# Block 1 — technique: protein binding microarray; molecule type: double-stranded DNA, one strand shown; medium: in vitro; concentration: not given; baseline: not given; reading: higher = stronger binding
# Target: Histone acetyltransferase KAT6A, winged helix 2, GST fusion (KAT6A, Homo sapiens, UniProt Q92794, residues 85-181)
# Notes: 8-mer, flanks averaged, mean of 2 arrays, mostly near background
# Construct (chain): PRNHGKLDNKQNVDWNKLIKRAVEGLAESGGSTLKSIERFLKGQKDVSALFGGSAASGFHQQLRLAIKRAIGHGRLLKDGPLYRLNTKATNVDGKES
Strand,E-score
CAATGGGC,-0.0758
ATGATCTG,-0.109
AAAAGTGT,-0.149
AGATTGCG,0.119
CATCGATA,-0.0191
CGGTGACC,-0.0242
ACACTTAA,-0.0948
CGAATCCC,0.116
CACTTAGC,0.0124
ACCGGCGT,-0.104
AGCTCTCG,-0.00954
ATAGCGCA,-0.111
CCCAGGAA,-0.0585
AAGCTTCT,-0.0889
TCATCCGA,0.0944
CTCCCATA,-0.251
CAGTGACA,0.0179
TACCCGGA,0.181
CACAGCCC,-0.116
AGGTTTCC,0.0316
AATTCCAA,0.0443

# Block 2 — technique: DHFR PCA, deep sequencing; medium: yeast; with: (+)-ABA 0.032 µM; baseline: wild-type fitted maximum; reading: higher = stronger binding
# Target: ABI1, truncated, D143A, DHFR fusion (Arabidopsis thaliana)
# Notes: methotrexate growth selection, single substitutions
# Starting sequence: PYL1, truncated, DHFR fusion (Arabidopsis thaliana); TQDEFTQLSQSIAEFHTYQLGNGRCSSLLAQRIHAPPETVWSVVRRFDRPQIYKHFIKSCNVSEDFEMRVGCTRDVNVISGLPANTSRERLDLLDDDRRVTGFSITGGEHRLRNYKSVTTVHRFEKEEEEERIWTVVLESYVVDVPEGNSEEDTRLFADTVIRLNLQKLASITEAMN
Variant,relative binding score [%]
L91A,17.4
P37N,4.13
D3I,3.45
T101D,-1.85
T173M,-3.41
K58W,-0.403
T73C,12.6
L20Y,13.2
L20I,35.6
K126H,38.9
V70W,-0.258
R163F,-23.5
L156S,5.17
F15E,3.27
E174A,-2.29
G21W,-0.234
H110E,39
E151V,38.1

# Block 3 — target: CCNB2, cyclin fold, Cln2 fusion (human); technique: yeast growth competition, sequencing; medium: yeast; notes: weak parent motif; baseline: not given; reading: higher = stronger binding
# Starting sequence: WEE1 docking peptide (human); HKTFRKLRLFDTP; partner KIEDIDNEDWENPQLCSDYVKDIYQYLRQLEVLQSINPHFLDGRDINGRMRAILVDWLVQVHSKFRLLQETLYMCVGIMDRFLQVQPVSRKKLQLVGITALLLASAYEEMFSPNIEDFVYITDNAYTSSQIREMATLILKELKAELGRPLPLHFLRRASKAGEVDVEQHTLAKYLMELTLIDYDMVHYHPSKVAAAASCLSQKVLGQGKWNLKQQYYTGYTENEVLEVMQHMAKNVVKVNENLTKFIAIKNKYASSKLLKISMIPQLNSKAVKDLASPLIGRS
Variant,normalised enrichment score
TKTFRKLRLFDTP [H1T],1.14
HKTFRKARLFDTP [L7A],0.189
HKTARKLRLFDTP [F4A],0.485
HKEFRKLRLFDTP [T3E],0.00365
HKGFRKLRLFDTP [T3G],1.02
HKTFRFLRLFDTP [K6F],-0.811
HKQFRKLRLFDTP [T3Q],0.455
HKTFRKKRLFDTP [L7K],0.759
HKTFAKARLFDTP [R5A L7A],0.837
HKTFRKLRLFDTG [P13G],-0.0717
HKTFRKLSLFDTP [R8S],0.681
HKTFRKLRLFDCP [T12C],0.617
HKTFRKERLFDTP [L7E],0.647
HKTFRKLRLFDTT [P13T],0.916
HKTFRKLRLFSTP [D11S],0.516
HKTFRKMRLFDTP [L7M],0.272
HKTFRKTRLFDTP [L7T],0.623
HKTFRKLRLFDTA [P13A],0.161
HKTFRKLRLNDTP [F10N],0.59
HKTFRNLRLFDTP [K6N],0.582
HKTFRKLRLFRTP [D11R],0.51
HKTFRKLWLFDTP [R8W],1.08
VKTFRKLRLFDTP [H1V],-0.0663
QKTFRKLRLFDTP [H1Q],1.04
HKTFRKLRLFGTP [D11G],-0.228

# Block 4 — technique: universal PBM; molecule type: double-stranded DNA, one strand shown; medium: in vitro; concentration: not given; reading: higher = stronger binding
# Target: Sal-like protein 4, full length isoform B (SALL4, Homo sapiens, UniProt Q9UJQ4-2, residues 1-616)
# Notes: 8-mer, flanks averaged, mean of replicates
# Residues (chain): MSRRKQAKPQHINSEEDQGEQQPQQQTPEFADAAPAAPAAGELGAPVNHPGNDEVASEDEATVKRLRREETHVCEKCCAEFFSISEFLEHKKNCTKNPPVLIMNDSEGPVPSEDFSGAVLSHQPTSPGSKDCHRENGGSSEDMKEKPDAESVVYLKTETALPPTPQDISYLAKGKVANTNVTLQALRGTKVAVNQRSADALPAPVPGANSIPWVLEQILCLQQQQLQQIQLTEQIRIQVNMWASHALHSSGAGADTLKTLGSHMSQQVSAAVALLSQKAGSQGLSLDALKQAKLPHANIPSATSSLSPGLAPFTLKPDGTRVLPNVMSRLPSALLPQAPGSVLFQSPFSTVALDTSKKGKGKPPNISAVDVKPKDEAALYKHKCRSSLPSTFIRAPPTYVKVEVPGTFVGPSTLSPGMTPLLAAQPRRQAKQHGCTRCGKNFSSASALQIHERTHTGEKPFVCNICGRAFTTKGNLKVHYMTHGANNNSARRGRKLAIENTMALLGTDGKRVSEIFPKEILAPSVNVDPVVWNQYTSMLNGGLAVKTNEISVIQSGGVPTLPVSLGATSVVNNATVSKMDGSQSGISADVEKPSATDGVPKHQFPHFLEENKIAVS
Strand,E-score
CAGCACGC,-0.159
AGCAATCG,-0.0179
TTGAAAAA,0.342
CGTACTCC,-0.166
AAGTTTCG,-0.0494
CTGAAGGC,-0.203
CAATATCG,0.152
GGCCATGA,-0.1
ACTAAAGC,0.0775
CGCGCTAA,-0.131
AATGAACA,0.155
GGCGCGAA,-0.137
ACCAACAG,-0.208
ACACAGGT,-0.0564
TGCAACCA,-0.185
CACTGCGA,-0.07
GGCATTTA,0.0283
GCCACACC,-0.134
CATTCATA,0.393
AGAACGTG,-0.00124
GCACCCCC,-0.296
CAATTCGG,-0.0904
AAGGTGAT,0.0513
GCATTAGC,-0.0543
AACCATGA,0.111

# Block 5 — technique: RNA Bind-n-Seq; molecule type: RNA; medium: in vitro; concentration: 365 nM; baseline: no-protein control; reading: higher = stronger binding
# Target: RNA binding protein fox-1 homolog 2, RRM domain, GST-SBP tag (RBFOX2, Homo sapiens, UniProt O43251-10, residues 100-194)
# Notes: natural RNA segment, single round, ends assumed
# All sequences stand within: GGGAGUUCUACAGUCCGACGAUC … UGGAAUUCUCGGGUGCCAA
# Construct (chain): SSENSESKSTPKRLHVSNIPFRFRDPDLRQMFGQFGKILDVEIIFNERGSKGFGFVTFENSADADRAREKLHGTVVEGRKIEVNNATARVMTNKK
Strand,RBNS enrichment (R)
AGGCAGGAGAAUUGCUUGAACCGGGGAGACGGAGGUUGCAGUGAGCCGAGUUUGGGCCACUGCACUCUAGCCUGGCAACAGAGCAAGACUCCGUCUCAAAAAAAGGGCAA,0.248
UCUAGAAGUAUACCGACCAAAAUCUAGUAUUGACAUGAUCUUGACAGGCUGGACCUGUGAGAUAUGGUUUGAAUUUUAACCAGUUUAUCACAUAACCUCUAGAGACCAUG,0.267
GUGCUCAGCCCUGCCCAUGGCUGUGCAGCUCCCUCCGUGCCUCAGAUCUGCUGUAGCCAGUGCAGACCUCACUGUCGUGUCCAUGCCACCCCCGGCAUGGCUCCAGGUGG,0.378
GGUCAACGUGAGGGGCUUACAUUCUGGGUUUGAUAAGAAAAGUGUUCAUUCAUGACUGCUAUGUCCUGAGAAAAGUUCCGAUUUCUUUUAACAAAUGUCAUCAUGAUUAA,0.349
GAAGGUUUAGUUUCCUUGAAGGAAACUACAGAAAAGGAAAGAAGCAGAAUGAGAAAGGAAUGGUACUUAGGUGUUUGGUAUGCUGCUCACGUGAAGUCAGCCCACACCAG,1
CACCCCCACGGCUCUCCUGGUUGAGGAGGGAGGGGCCUGGCUGACCCCUCCAGCUUCAGCCUCCAGCUUUAACUUCUGUCUGCUCCUAAUGGGGGCCCAAAGCUCAGGGC,0.306
AUUAACAGCUGAACACCUGCAACUGCAAAUGUUUUUUGAUCCGACGUACUGAAAUAGGAAGUCAUGCUCUUCCCACCCUCCACCCACCAGAGUGGAACCCGCUGCAAAAU,1.21
ACUUCAACUUUGGCAUUUCAUUCAUACUUCUGUAGAGAACGGAAAACUAUUGUCCAUUAACAUGAUAUGCUAAACAUUCUAUAAACAUUCUUGUAUUUAUGUGAGACUUG,0.401

# For quick reference, copied from above (block 3):
Variant,normalised enrichment score
HKEFRKLRLFDTP [T3E],0.00365
HKGFRKLRLFDTP [T3G],1.02
HKTFRFLRLFDTP [K6F],-0.811
HKQFRKLRLFDTP [T3Q],0.455
HKTFRKKRLFDTP [L7K],0.759
HKTFAKARLFDTP [R5A L7A],0.837
HKTFRKLRLFDTG [P13G],-0.0717
HKTFRKLSLFDTP [R8S],0.681
HKTFRKLRLFDCP [T12C],0.617
HKTFRKERLFDTP [L7E],0.647
HKTFRKLRLFDTT [P13T],0.916
HKTFRKLRLFSTP [D11S],0.516
HKTFRKMRLFDTP [L7M],0.272
HKTFRKTRLFDTP [L7T],0.623
HKTFRKLRLFDTA [P13A],0.161
HKTFRKLRLNDTP [F10N],0.59
